# Assay results pooled from the literature.
# Every numbered part comes from another study and shows a few of its results, in no order.

# Study 1
# Target: Histone acetyltransferase KAT6A, winged helix 2, GST fusion (KAT6A, Homo sapiens, UniProt Q92794, residues 85-181)
# Technique: protein binding microarray
# Molecule type: double-stranded DNA, one strand shown
# Medium: in vitro
# Tested at: not given
# Notes: 8-mer, flanks averaged, mean of 2 arrays, mostly near background
# Baseline: not given
# Direction: higher = stronger binding
# Construct (chain): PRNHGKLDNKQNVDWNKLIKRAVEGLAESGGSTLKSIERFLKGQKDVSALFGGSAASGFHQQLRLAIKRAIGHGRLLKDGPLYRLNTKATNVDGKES
Strand,E-score
GGCGGACA,0.196
CCGCTCTC,0.0225
CTGATATA,0.0588
AGACTTGG,-0.175
AGATCTGA,-0.137
AATGGATG,-0.144
GATCAGCC,0.041
CACCTAGG,-0.122
ATGGCTGG,-0.0522
AACACACC,0.0814
GAAGACCC,-0.109
CTCATAGA,-0.0418
AGTCTGTA,-0.284
CACGATCA,-0.0381
AAGAATAT,-0.172
CCACTCGC,0.116
ACTTCAGC,0.0106
AAGATTGA,-0.0671
ACCTTGAT,0.0209
GCGTAGAC,-0.122
GATGCGAC,0.0823

# Study 2
# Target: Ras GTPase-activating protein-binding protein 1, C-terminal RGG region (G3BP1, Homo sapiens, UniProt Q13283)
# Sequence of UniProt Q13283 (whole entry, looked up): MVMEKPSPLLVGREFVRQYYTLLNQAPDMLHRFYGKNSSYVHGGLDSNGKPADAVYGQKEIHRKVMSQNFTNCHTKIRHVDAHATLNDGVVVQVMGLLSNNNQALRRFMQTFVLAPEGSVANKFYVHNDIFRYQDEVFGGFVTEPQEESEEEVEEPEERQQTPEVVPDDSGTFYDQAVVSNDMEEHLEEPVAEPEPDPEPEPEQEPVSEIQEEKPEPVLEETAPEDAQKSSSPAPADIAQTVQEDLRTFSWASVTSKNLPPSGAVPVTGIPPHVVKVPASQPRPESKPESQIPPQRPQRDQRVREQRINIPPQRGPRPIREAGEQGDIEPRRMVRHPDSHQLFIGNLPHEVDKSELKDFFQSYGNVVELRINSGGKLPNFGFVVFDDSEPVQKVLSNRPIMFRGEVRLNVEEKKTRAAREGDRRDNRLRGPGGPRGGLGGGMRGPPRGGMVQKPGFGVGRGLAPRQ
# Technique: RNA Bind-n-Seq
# Molecule type: RNA
# Medium: in vitro
# Tested at: 1 µM
# Notes: whole 134-nt RNA, ends assumed
# With: 150 mM KCl
# Baseline: input library
# Direction: higher = stronger binding
Strand,log2 enrichment
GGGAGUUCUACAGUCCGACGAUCUCCUGUGCUACACAUCGUAUGUACCGAAUCGGGAAAAAAAGGAAAAAAAGGAAAAAAAGGAAAGUAUUAUGUUACGCCGUUCGGAUCUGCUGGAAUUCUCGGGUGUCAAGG,-1.05
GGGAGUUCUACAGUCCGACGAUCACCAUGCAGGUGGGCAUCUUUGGGAAGUGGGGCAAGGGGGGGAUAGGGAGGGGGGUAACACUUUGGGAUCAGGUGGUCCCAGGUCGUUUCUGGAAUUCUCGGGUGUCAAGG,1.84
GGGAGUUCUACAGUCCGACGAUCUCCUGUGCUACACAUCGUAUGUACCGAAUCGGGGUUUUUGGGGUUUUUGGGGAAAGGGGAAAGUAUUAUGUUACGCCGUUCGGAUCUGCAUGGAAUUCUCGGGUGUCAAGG,1.91
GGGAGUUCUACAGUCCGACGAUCCUCAAGUCCUGUGCUACACAUCGUAUGUACCGAAUCGGGAAGGAAGGAAGGGGAAAGUAUUAUGUUACGCCGUUCGGAUCUGCACUUCCAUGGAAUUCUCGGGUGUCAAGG,-1.03
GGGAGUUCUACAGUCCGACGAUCCUGUGCUACACAUCGUAUGUACCGAAUCGGGGAAAAAAGGGGAAAAAAGGGGAAAAAAGGGAAAGUAUUAUGUUACGCCGUUCGGAUCUGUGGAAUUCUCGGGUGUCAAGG,-0.755
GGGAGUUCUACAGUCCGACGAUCCCUGUGCUACACAUCGUAUGUACCGAAUCGGGGUUUGGGGUUUUUGGGGUUUUUUUGGGGAAAGUAUUAUGUUACGCCGUUCGGAUCUGCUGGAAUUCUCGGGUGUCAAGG,0.943
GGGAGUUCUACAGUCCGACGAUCCACAGACAACACGCACCCACACAGACACAGAUGGAAGGGGUUGGGAUGGGGACAGGGUGCACAGCAGGGCGGGGUAGGACCCCAGCCCCUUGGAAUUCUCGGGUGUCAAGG,-0.0485
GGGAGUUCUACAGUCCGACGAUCUCAAGUCCUGUGCUACACAUCGUAUGUACCGAAUCGGGGCCGGGCCGGGGCCGGAAAGUAUUAUGUUACGCCGUUCGGAUCUGCACUUCCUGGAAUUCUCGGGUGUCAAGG,-1.97
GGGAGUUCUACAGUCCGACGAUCUGGCCCUGGUGGCAUGCGGGGAGGAAGAGGUGGCCUCAUGGAUCUUGGUGGUCCCGGUGGAAUGUUCAGAGGUGGCCGUGGUGGAGACAGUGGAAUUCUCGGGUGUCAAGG,2.74
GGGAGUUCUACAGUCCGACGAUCAGUCCUGUGCUACACAUCGUAUGUACCGAAUCGGGGAGGGGAAAAAGGGGUUUGGGGAAAGUAUUAUGUUACGCCGUUCGGAUCUGCACUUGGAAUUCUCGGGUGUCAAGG,1.93

# Study 3
# Target: Phosphate system positive regulatory protein PHO4, full length, GST-tagged (PHO4, Saccharomyces cerevisiae, UniProt P07270, residues 1-312)
# Technique: competition protein-binding microarray
# Molecule type: double-stranded DNA, one strand shown
# Medium: in vitro
# Tested at: 2 µM
# Notes: whole 60-bp probe, lowest competitor level
# With: Cbf1 competitor, 0.05 µM
# Direction: higher = stronger binding
# Target sequence (chain): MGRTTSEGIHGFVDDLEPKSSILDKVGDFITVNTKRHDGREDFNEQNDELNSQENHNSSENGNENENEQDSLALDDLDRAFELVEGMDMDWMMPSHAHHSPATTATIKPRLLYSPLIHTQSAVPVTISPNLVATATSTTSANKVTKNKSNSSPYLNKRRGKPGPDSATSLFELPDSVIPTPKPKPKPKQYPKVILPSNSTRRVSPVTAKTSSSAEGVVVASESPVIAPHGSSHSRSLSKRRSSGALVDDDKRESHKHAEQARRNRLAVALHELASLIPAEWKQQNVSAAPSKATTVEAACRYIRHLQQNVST
Strand,fluorescence intensity
ATTTATCATTTAAATCACATGGACACCCACCGAACTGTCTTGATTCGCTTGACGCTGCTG,8820 a.u.
GAATTACAGTTGGATGACATGTTGAACTCAGAAAAAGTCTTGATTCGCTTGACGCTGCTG,4920 a.u.
CGCCAAAGTTCTTGCCTCGTGGTCGTTGGCCTTCGCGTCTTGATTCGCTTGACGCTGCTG,10500 a.u.
TTGGTGTTTCAGGTATTCGTGCTAATCAACGTTACTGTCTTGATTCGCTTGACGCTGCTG,6420 a.u.
GTTATAAAAATATGTCAGGTGATTTTTTTTTCTCTTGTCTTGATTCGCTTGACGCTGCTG,3970 a.u.
TTAAAGTTTCTCCATCACGTGAAGCATTACCATTTTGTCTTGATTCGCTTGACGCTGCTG,12400 a.u.
AGAACACCTTAGAACCACATGATGCGTACCTACTACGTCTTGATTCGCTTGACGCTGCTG,7470 a.u.
TACCAATCGATTTGTCACCTGCAAAAGGACCTGGATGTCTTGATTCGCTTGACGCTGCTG,3780 a.u.
CGTCCTAGCGATTGAGATGTGGGTGCCATGAGGAAGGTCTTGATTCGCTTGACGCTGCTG,7110 a.u.
GAAGGAGTGCGGGACCCCGTGGGTACCGCATCCCTTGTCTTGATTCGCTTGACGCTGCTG,9180 a.u.
ACTGGCAGCTCATTACTCGTGACGGAGCTTTAACAGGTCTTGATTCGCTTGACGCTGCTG,6650 a.u.
TAGTTTTTCGCAAGCCATGCGTGTACTTTCGTTTTTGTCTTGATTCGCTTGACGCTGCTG,7450 a.u.
CGGGGTTAAGTTTGAGTGGTGGGTGGCTTGCAGCAGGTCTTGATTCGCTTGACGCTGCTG,4860 a.u.
CTTCTGTAAATTTGTTAAGTGGGTGGACGCGCCCCGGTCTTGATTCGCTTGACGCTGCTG,4050 a.u.
CGGGGTTAAGTTTTTCACGTGCGGTGCTTGCAGCAGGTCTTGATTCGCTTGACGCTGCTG,14200 a.u.
GGGAAATAGACGTCGCACACGCCGAAGTATGTGTCCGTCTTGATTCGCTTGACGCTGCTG,7490 a.u.
TGCGCAACAACTTGACTCGTGGGTGTATGTCTAGAAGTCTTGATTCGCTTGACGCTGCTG,11100 a.u.
CCCATTGAATTCGGGAATGTGCGGGTTTCAGATTGCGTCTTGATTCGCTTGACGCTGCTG,6570 a.u.
CGGTAAATGAATCAGCATGTGAATTTTTCTAGAAAAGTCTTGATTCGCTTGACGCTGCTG,5610 a.u.
TAGTTGTCGTCGTTTCATGTGACGGATTCCCCTTTAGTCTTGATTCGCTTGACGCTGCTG,4250 a.u.
CTTCTGTAAATTTGGTTTGTGGGTGGACGCGCCCCGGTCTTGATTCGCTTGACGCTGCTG,4310 a.u.
CGGGGTTAAGTTTGTTCCGTGGGTGGCTTGCAGCAGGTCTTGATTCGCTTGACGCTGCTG,5530 a.u.
GTCTTGTCTCATTGACCCGTGGGTGTCCCCACTTCAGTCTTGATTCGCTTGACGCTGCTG,8280 a.u.

# Study 4
# Target: RNA binding protein fox-1 homolog 2, RRM domain, GST-SBP tag (RBFOX2, Homo sapiens, UniProt O43251-10, residues 100-194)
# Technique: RNA Bind-n-Seq
# Molecule type: RNA
# Medium: in vitro
# Tested at: 365 nM
# Notes: natural RNA segment, single round, ends assumed
# Baseline: no-protein control
# Direction: higher = stronger binding
# Residues (chain): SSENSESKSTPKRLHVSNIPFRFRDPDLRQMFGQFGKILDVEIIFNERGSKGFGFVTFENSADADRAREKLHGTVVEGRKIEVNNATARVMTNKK
Strand,RBNS enrichment (R)
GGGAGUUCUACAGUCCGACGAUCCUGGGGCCAGGGGCUGAUUCACUUCCUUGGGAGAUGGUGGUGUUUUCAUGAACAUCUUUGAUCCUUCCAUUUCAUUUAUUCAUCCAUCCAUUCAACAAGUAUUUGCUAAAUGGAAUUCUCGGGUGCCAA,0.367
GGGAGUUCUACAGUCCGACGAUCUGGCGGCCGGGGUGGGGGUUGAGGACGUGGGGUGAGGGGAGGCAGCUGCAGACAUGAGCCUUCCCGCCUCAACACAUCCUCCGUAGAAGGGACCCCCUCCCUGCUCCUGGUGGAAUUCUCGGGUGCCAA,0.76
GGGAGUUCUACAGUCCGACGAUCUCCCCACCAUCCUGGGGAAGUGAUGGUGUGGCCAGGCAGUUAUAGAUUAAAGGCCUGUGAGUACUGCUGAGCUUGGUGUGGCUUGGUGUGGCAGAAGGCCUGGCCUAGGAUGGAAUUCUCGGGUGCCAA,0.848
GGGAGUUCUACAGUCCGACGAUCGGCUCCACAUUAGGUCACCUGUGCACAGCCAUGGCUGGAAUGAUGAAGGGGAUACGCUGGAGUUGCCCUGCCAUCGCCUCCAUCAGCCAGACGAGGUCCUCACAGGAGAAUGGAAUUCUCGGGUGCCAA,0.223
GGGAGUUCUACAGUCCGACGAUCAGAGACCCACUUUAUUCAGUUCUGUACAUAUGGGGACAUCGGCCCAAGCCCAGCCCACCUUAGCAUGUAUCACUCUGUGGAGAAUAAAGCACCCUGUGUACACAGCCAGAUGGAAUUCUCGGGUGCCAA,1.88
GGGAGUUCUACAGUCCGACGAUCUAAAUUAUGCUUCCAACCUUGUAUAGGUUUGUAAGCUUGCCCAGAAGUGAGACCACUGUUGAAGUACCACAAAAGUUUGAAUGAACGAGUGAGUGUUCACUCUUUUGUCUUGGAAUUCUCGGGUGCCAA,0.319
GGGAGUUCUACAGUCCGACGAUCUCUCCACAGGUGCGGCCUGGCCCGGCCUCCUAAAGGCCACACCCUCCCCACGCACUUCCCAGGCCAGAAUCCAAACAUCGGGAACCCUGUUUUCUUCUGGGUGUGUCUCAUGGAAUUCUCGGGUGCCAA,0.538
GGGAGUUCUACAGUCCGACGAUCUAGUAACUUGGAAAAGACCAAAAAAGGGAGUGGAACAAAGGAACCGCCAUUAGACUGAAAAAACAAUGGCCUGAUGGUUGAAGUACAUUUUCAUUUGCAGAAUAUUAAAGUGGAAUUCUCGGGUGCCAA,0.606
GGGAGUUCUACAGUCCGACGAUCGAACAGCCCAGUGCAGUCUAAACUUCAAUUGUGUUGAAACUACUUUAAUAGACAAAGUAAUAAAUCAUGUUUAUCUAUUGAUUUAAACUUCAUCAGUUUUGCAUCCUACUUGGAAUUCUCGGGUGCCAA,0.938

# Excerpt of the above (study 1):
Strand,E-score
CACGATCA,-0.0381
AAGAATAT,-0.172
CCACTCGC,0.116
ACTTCAGC,0.0106
AAGATTGA,-0.0671
ACCTTGAT,0.0209
GCGTAGAC,-0.122
GATGCGAC,0.0823
